Published values collected from several papers.
Compare with care: the assays were run in different laboratories. ± marks the error that the study gave.
Cell line: K562

| SMILES | assay | setting | quantity | value |
| --- | --- | --- | --- | --- |
| Cc1cc(O)c2c(c1)C(=O)c1cc(O)cc(O)c1C2=O | cell growth or viability, ATP luminescence | 24 h | IC50 | 13 µM |
| COc1ccc2c(N)c(C(=O)c3cc(OC)c(OC)c(OC)c3)oc2c1 | cell growth or viability | – | IC50 | 0.008 µM |
| C(=C\c1ccccc1)/c1ccccc1 | cell growth or viability, ATP luminescence | 24 h | IC50 | 500 µM |
| COc1cccc(-c2cc(-c3ccccc3)nc(N)n2)c1 | cell growth or viability, MTT | 48 h | IC50 | 32.4 µM |
| O=c1cc(-c2ccccc2)oc2cc(O)cc(O)c12 | cell growth or viability, ATP luminescence | 24 h | IC50 | 340 µM |
| CC(C)C[C@H](NC(=O)[C@@H](O)[C@H](N)Cc1ccccc1)C(=O)O | aminopeptidase activity | added: Ala-AMC 50 | IC50 | 2.2 µM |
| COc1cc2c(NC3CCN(CCCC(=O)NCCCCCCCCCCCC(=O)N[C@H](C(=O)N4C[C@H](O)C[C@H]4C(=O)NCc4ccc(-c5scnc5C)cc4)C(C)(C)C)CC3)nc(N3CCC(F)(F)CC3)nc2cc1OCCCN1CCCC1 | cell growth or viability, CCK-8 | 7 days | IC50 | 2 µM |
| Cc1cn(-c2cc(NC(=O)c3ccc(C)c(Nc4nccc(-c5cccnc5)n4)c3)cc(C(F)(F)F)c2)cn1 | annexin V staining | 72 h, continuous exposure | threshold concentration for apoptosis | 25 nM |
| COc1ccc2c(NC(=O)CI)c(C(=O)c3cc(OC)c(OC)c(OC)c3)oc2c1 | flow cytometry | IC50 | sub-G1 cells | 33 ± 4% |
| COc1cccc(-c2cc(-c3ccc(Br)cc3)nc(N)n2)c1 | cell growth or viability, MTT | 48 h | IC50 | 57.7 µM |
| COc1cc(C(=O)c2sc3c(C)cccc3c2N)cc(OC)c1OC | cell growth or viability | – | IC50 | 0.03 µM |
| COc1ccc(-c2cc(-c3ccccc3)nc(N)n2)cc1 | cell growth or viability, MTT | 48 h | IC50 | 61.9 µM |
| COc1ccc2c(NC(=O)CCl)c(C(=O)c3cc(OC)c(OC)c(OC)c3)oc2c1 | flow cytometry | IC50 | sub-G1 cells | 13 ± 2% |
| O=c1cc(-c2ccc(O)cc2)oc2cc(O)cc(O)c12 | cell growth or viability, ATP luminescence | 24 h | IC50 | 350 µM |
| COc1cccc(-c2cc(-c3ccccc3O)nc(N)n2)c1 | cell growth or viability, MTT | 48 h | IC50 | 82 µM |
